# Assay results pooled from the literature.
# A part holds a random share of what one study measured. Changes are numbered by the printed parent chain.

# Set 1 — target: CREB5, bZIP domain (human); technique: DHFR protein complementation; matrix: yeast; baseline: wild-type JUN-FOS pair; direction: higher = stronger binding
# Setting: single substitutions, most at no-binding floor
# Starting sequence: JUN, bZIP domain (human); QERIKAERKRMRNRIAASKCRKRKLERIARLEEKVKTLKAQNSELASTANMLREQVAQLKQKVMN; partner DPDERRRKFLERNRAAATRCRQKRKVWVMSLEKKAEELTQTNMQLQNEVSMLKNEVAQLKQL
Variant,binding fitness
A46M,-0.192 natural log
L38I,-1.07 natural log
E54Q,-0.66 natural log
K39Y,-0.539 natural log
E33F,-0.588 natural log
N42D,-1.2 natural log
A46N,-0.251 natural log
Q55F,-0.964 natural log
L38A,-1.33 natural log
S43E,-0.0999 natural log
K36Q,-0.341 natural log
E44V,-0.382 natural log
L38N,-1.36 natural log
V35T,-1.06 natural log
N42E,-0.73 natural log

# Set 2 — technique: competition protein-binding microarray; form: double-stranded DNA, one strand shown; matrix: in vitro; concentration: 2 µM; with: Cbf1 competitor, 0.05 µM; direction: higher = stronger binding; shared flanks, not repeated: … GTCTTGATTCGCTTGACGCTGCTG
# Target: Phosphate system positive regulatory protein PHO4, full length, GST-tagged (PHO4, Saccharomyces cerevisiae, UniProt P07270, residues 1-312)
# Setting: whole 60-bp probe, lowest competitor level
# Target sequence (chain): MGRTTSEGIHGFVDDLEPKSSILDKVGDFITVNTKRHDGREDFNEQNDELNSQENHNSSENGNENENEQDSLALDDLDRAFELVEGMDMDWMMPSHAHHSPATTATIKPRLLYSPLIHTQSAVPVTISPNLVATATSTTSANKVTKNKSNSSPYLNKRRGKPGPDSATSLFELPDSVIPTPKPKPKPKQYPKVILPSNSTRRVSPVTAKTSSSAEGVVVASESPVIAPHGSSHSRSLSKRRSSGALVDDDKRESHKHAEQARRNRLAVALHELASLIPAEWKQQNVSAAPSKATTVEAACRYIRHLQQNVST
Sequence,fluorescence intensity
CTAACGAAGGTTTGATTTGTGGGTGACAAGCCAAGT,3230 a.u.
TGCGCAACAACTTCGCACGTGTTTTTATGTCTAGAA,20900 a.u.
CGTTTTTTTTCCCGACACGTGTCGGAGAAGAGTTTG,17500 a.u.
CAACATGCCAAATCGCACGTGACTCGAAACTATGGA,15900 a.u.
CTAACGAAGGTTTGACCAGTGGGTGACAAGCCAAGT,3800 a.u.
TGAAGAGTGTTGTCTCATGTGACAGTGAATGCCATT,5430 a.u.
CAACAGCAGCAACATCACACGCAGAATTCACAACCA,6680 a.u.
CTTTCCCGATCTTGCCACGTGTTTTTAGCACATTTG,17400 a.u.
TTATTTCCCTTCCCTCGCGTGCCAGTCGGCGATCTC,7680 a.u.
TTATTCCCGTATCCACACGTGGCCGAAGAATATATA,18100 a.u.
CTTTCCCGATCTTGTCACTGTACTTTAGCACATTTG,4360 a.u.
CGCTATTTTCGCCGTCACATGTCAATAAAAGCAGAT,10600 a.u.
CCTGGTAGGTTTGATCTCTTGAGAGTTTGAGCTTTC,2400 a.u.
GTCAATACTCTAATAGCTGTGATGAAAATCATAATA,3490 a.u.
GTCTTGTCTCATTGCGGTGTGGGTGTCCCCACTTCA,5810 a.u.
GTCTTGTCTCATTTTCACGTGATGTTCCCCACTTCA,9640 a.u.
GCAGATAGACGCTCGCCCGTGAGCCACTCAGGACGC,3460 a.u.
CTAACGAAGGTTTGGTACGTGGGTGACAAGCCAAGT,7300 a.u.
GCCCTGTCCAGGATTGGCGTGGGACCGCTGGCCGCA,3830 a.u.
GATTCTTCAGTTTAGCACGTGCCGATTTGGCCTCTT,17200 a.u.
TTAACGGGAAGGCGCGTCGTGATGGTCTCGCGCTTT,5280 a.u.
AGACTGAAAGTTTTGCATGATCAATTTCTCTCATTG,3840 a.u.
AAGTTTCGGAATACACTCGTGCTTTCAACCTAAGAC,11500 a.u.

# Set 3 — target: CCND1, cyclin fold, Cln2 fusion (human); technique: yeast growth competition, sequencing; matrix: yeast; setting: strong parent motif; baseline: not given; direction: higher = stronger binding
# Starting sequence: SCAPER docking peptide (human); SNARRSLNFGGST; partner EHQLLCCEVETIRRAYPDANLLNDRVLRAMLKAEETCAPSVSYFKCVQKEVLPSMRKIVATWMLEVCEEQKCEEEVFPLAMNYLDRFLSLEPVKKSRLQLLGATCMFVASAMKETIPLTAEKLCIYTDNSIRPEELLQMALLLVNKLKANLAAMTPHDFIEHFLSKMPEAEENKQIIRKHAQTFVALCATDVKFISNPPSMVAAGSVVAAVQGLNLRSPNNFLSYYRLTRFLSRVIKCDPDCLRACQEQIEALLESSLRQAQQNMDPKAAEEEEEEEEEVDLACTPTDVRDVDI
Variant,normalised enrichment score
R4P,0.186
S1F,1.23
A3R,0.0152
S1Q,0.547
G10L,0.377
R4G,-0.0532
S12P,1.85
R5G,0.361
S6E,1.59
N2F,1.39
G11S,1.14
A3I,0.339
N8I,1.11
A3Q,-0.397
G10T,0.944
G10I,0.463
F9Q,0.0285

# Set 4 — technique: RNA Bind-n-Seq; form: RNA; matrix: in vitro; concentration: 200 nM; setting: whole 134-nt RNA, ends assumed; with: 150 mM KCl; baseline: input library; direction: higher = stronger binding
# Target: Fragile X messenger ribonucleoprotein 1, C-terminal low-complexity region (Fmr1, Mus musculus, UniProt P35922)
# Shared flanks, not repeated: GGGAGUUCUACAGUCCGACGAUC … UGGAAUUCUCGGGUGUCAAGG
Sequence,log2 enrichment
UAACUUUAGAGGAGGAUCUGAUGGAUAUGGCAGUGGACGUGGAUUUGGGGAUGGCUGUAAUGGGUAUGGAGGAGGACCUGGAGGUGGCAA,0.225
UCAAGUCCUGUGCUACACAUCGUAUGUACCGAAUCGGGCCGGCCGGGGCCGGGGAAAGUAUUAUGUUACGCCGUUCGGAUCUGCACUUCC,-0.289
GUCCUGUGCUACACAUCGUAUGUACCGAAUCGGGGUUUUUGGGUUUUUGGGGUUUUUGGAAAGUAUUAUGUUACGCCGUUCGGAUCUGCA,0.118
UUCCGCCUCUUUCCGGAGUACAAGAACAACAAACUUUUCCUGACCGGGGAGAGCUAUGCUGGCAUCUACAUCCCCACCCUGGCCGUGCUG,0.526
AAGUCCUGUGCUACACAUCGUAUGUACCGAAUCGGGGUGGGGAAAGGGGUUUGGGGAAAGUAUUAUGUUACGCCGUUCGGAUCUGCACUU,0.996
CCUCAAGUCCUGUGCUACACAUCGUAUGUACCGAAUCGGGAGGGGAGGGAGGAAAGUAUUAUGUUACGCCGUUCGGAUCUGCACUUCCAG,0.65
UCAAGUCCUGUGCUACACAUCGUAUGUACCGAAUCGGUUUUUGGAAAGGAAAGGAAAGUAUUAUGUUACGCCGUUCGGAUCUGCACUUCC,-0.54
UAACUUUAGAGGAGGAUCUGAUGGAUAUGGCAGUGGACGUGGAUUUGGGGAUGGCUAUAAUGGGUGUGGAGGAGGACCUGGAGGUGGCAA,0.26
CCUGUGCUACACAUCGUAUGUACCGAAUCGGGUUUUUUUGGGUUUUUUUGGGUUUUUUUGGAAAGUAUUAUGUUACGCCGUUCGGAUCUG,-0.564
AAGUCCUGUGCUACACAUCGUAUGUACCGAAUCGGGUUUGGGUGGGUUUUUUUGGGAAAGUAUUAUGUUACGCCGUUCGGAUCUGCACUU,1.08
AGUCCUGUGCUACACAUCGUAUGUACCGAAUCGGUUUUUGGGUUUUUGGGUUUUUGGAAAGUAUUAUGUUACGCCGUUCGGAUCUGCACU,-0.473
CAAGUCCUGUGCUACACAUCGUAUGUACCGAAUCGGGGAAGGGGAAGGGAAGGGGAAAGUAUUAUGUUACGCCGUUCGGAUCUGCACUUC,0.782
CUGUGCUACACAUCGUAUGUACCGAAUCGGUUUUUUUGGGGUUUUUUUGGGGUUUUUUUGGGAAAGUAUUAUGUUACGCCGUUCGGAUCU,-0.226
UAACUUUAGAGGAGGAUCUGAUGGAUAUGGCAGUGGACGUGGAUUGGGGGAUGGCUAUAAUGGGUAUGGAGGAGGACCUGGAGGUGGCAA,0.256

# Set 5 — technique: protein-binding microarray; form: double-stranded DNA, one strand shown; matrix: in vitro; concentration: 2540 nM top; setting: 60-bp whole probe; with: salmon DNA 0.4 mg/ml; baseline: random background probes; direction: higher = stronger binding; shared flanks, not repeated: GCCTAGCAC … GTCTTGATTCGCTTGACGCTGCTG
# Target: Interferon regulatory factor 3, full length, phosphomimetic (IRF3, Homo sapiens, UniProt Q14653, residues 1-427, S386D/S396D/S398D/S402D/T404D/S405D)
# Residues (chain): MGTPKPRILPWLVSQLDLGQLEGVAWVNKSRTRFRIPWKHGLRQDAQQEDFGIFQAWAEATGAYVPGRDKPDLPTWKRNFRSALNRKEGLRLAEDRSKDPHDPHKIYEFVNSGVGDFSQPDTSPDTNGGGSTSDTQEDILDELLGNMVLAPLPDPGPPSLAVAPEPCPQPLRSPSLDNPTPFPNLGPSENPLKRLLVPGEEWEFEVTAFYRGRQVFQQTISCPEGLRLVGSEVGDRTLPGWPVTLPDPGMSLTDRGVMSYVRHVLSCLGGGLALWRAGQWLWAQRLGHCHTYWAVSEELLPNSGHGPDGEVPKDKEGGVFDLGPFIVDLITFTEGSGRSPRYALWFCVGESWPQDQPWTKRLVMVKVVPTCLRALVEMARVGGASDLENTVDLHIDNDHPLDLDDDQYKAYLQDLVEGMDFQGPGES
Sequence,fitted relative affinity [z-score]
TTAGAACTGTGGTATCGATTAGTGCTA,0.018
TTAGAACTGGGGACTAGATTAGTGCTA,-0.746
TCAAAATGATTGGTTGAACTGTGCTAG,-0.316
GACGGTTTCGGTTTCGGGCCGTGCTAG,9.9
GACGGTTTCGAAACTGGGGACGTGCTA,5.31
GACCGTTCCCTTTTCCTGACGTGCTAG,5.22
TCACTGCTACCCTTTGAAACTGTGCTA,-0.209
GACGGTTTCCCACTGCTGACGTGCTAG,4.93
TGGGGCTGTATCATCTGAAGGTGCTAG,-0.293
TTAGGTTTCGGACTTGGTTAGTGCTAG,5.94
TTCGGTTTCGGGACTGGGTTAGTGCTA,5.34
TCATGTTTGGTTCTGATACTGTGCTAG,0.759
TTTGGTCTCGGTATCGGTTAGTGCTAG,2.56
TTAGATATCAGACTGGGTTAGTGCTAG,0.0464
AACGGTTTCGACTTTCGGGACGTGCTA,3.87
ACTAATTTCCATTTTCTAAAGTGCTAG,6.39
TTAGGTATCGACTATCGGTTCGTGCTA,0.722
TTAGGTGTCGACTTTCGGTTAGTGCTA,2.24
TTAGGTATCCTTTTCCTTAAGTGCTAG,8.98
AGAGCAGACCCAGAGTGGCAGTGCTAG,-0.709
TTAGATTTCGGGACTGGATTTGTGCTA,1.39
TCAAGAATCACAACTAGGACTGTGCTA,0.353

# Other studies, line by line
Molecule,target,test,system,setting,how to read,measurement,value
"PhoQ, residues 284 288 289 292 302 303 SSLVEF","PhoP, residues 12 14 15 18 19 QWHVF (Escherichia coli, UniProt P23836)","Sort-seq, item: YFP reporter",E. coli,"PhoQ-PhoP variant library, with: 10 µM Mg2+","baseline: high Mg2+ state, higher = stronger signaling",fold induction,4.46

# Repeated from above (set 5):
Sequence,fitted relative affinity [z-score]
GACGGTTTCGAAACTGGGGACGTGCTA,5.31
TTAGAACTGTGGTATCGATTAGTGCTA,0.018
TTAGAACTGGGGACTAGATTAGTGCTA,-0.746
TGGGGCTGTATCATCTGAAGGTGCTAG,-0.293
TCATGTTTGGTTCTGATACTGTGCTAG,0.759
TCACTGCTACCCTTTGAAACTGTGCTA,-0.209
TTAGGTATCCTTTTCCTTAAGTGCTAG,8.98
